Results of several laboratories.
Parts stem from different laboratories: compare values within a part only.

Study 1
Target: Prothrombin, mature alpha-thrombin (F2, Homo sapiens, UniProt P00734)
Technique: aptamer microarray, sandwich
Molecule type: DNA with 2'F-ANA
Sample: in vitro
Tested at: 200 nM
Setting: whole 15-mer aptamer, many near background
Together with: Cy3 exosite-II aptamer, 400 nM
Reading: higher = stronger binding
Sequence | mean fluorescence intensity [a.u.]
GGTTGGTGTGGTTGG (2'F-ANA at 5 7 8 9 11 15) | 75.6
GGTTGGTGTGGTTGG (2'F-ANA at 2 3 4 7 8 9 12 13 14 15) | 259
GGTTGGTGTGGTTGG (2'F-ANA at 1 2 3 4 6 9) | 138

Study 2
Target: Histone acetyltransferase KAT6A, winged helix 1, GST fusion (KAT6A, Homo sapiens, UniProt Q92794, residues 1-85)
Technique: protein binding microarray
Molecule type: double-stranded DNA, one strand shown
Sample: in vitro
Tested at: not given
Setting: 8-mer, flanks averaged, mean of 2 arrays, mostly near background
Baseline: not given
Reading: higher = stronger binding
Target sequence (chain): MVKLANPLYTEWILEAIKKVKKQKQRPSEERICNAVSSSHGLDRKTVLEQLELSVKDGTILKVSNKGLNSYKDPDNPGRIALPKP
Sequence | E-score
ATAGCGGC | 0.332
CCCAAAGG | -0.105
CCGTCCAG | 0.081

Study 3
Target: PABPC1L2, full length, GST fusion (mouse, UniProt A0ABA7IW68)
Technique: RNAcompete
Molecule type: RNA
Sample: in vitro
Tested at: 20 nM
Setting: 7-mer, probes averaged, single round
Baseline: mean of 7-mers
Reading: higher = stronger binding
Construct (chain): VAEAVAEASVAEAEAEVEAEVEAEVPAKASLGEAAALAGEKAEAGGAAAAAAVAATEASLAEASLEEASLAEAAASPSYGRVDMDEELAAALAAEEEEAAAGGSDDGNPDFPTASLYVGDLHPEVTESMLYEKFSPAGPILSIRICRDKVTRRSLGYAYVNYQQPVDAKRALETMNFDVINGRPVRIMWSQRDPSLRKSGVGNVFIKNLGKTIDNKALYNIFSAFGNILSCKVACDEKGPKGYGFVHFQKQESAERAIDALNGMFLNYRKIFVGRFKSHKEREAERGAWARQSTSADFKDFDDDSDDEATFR
Sequence | 7-mer Z-score
CCUCAGC | -0.354
AUCUACG | -0.0989
ACAUAGA | 0.131

Single results of other studies
Molecule | target | test | test system | conditions | scale | endpoint | result
PhoQ, residues 284 288 289 292 302 303 ALSMDL | PhoP, residues 12 14 15 18 19 AQALL (Escherichia coli, UniProt P23836) | Sort-seq, refers to: YFP reporter | E. coli | PhoQ-PhoP variant library, together with: 10 µM Mg2+ | baseline: high Mg2+ state, higher = stronger signaling | fold induction | 35.9

Excerpt of the above (study 2):
Sequence | E-score
CCGTCCAG | 0.081
